Results gathered from unrelated publications.
A part holds a random share of what one study measured. Positions count from the first letter of the parent shown.

Block 1
Target: CCND2, cyclin fold, Cln2 fusion (human)
Technique: yeast growth competition, sequencing
Matrix: yeast
Setting: weak parent motif
Reference: not given
Direction: higher = stronger binding
Endpoint: normalised enrichment score
Parent: BRCA2 docking peptide (human); PSIKRNLLNEFDR; partner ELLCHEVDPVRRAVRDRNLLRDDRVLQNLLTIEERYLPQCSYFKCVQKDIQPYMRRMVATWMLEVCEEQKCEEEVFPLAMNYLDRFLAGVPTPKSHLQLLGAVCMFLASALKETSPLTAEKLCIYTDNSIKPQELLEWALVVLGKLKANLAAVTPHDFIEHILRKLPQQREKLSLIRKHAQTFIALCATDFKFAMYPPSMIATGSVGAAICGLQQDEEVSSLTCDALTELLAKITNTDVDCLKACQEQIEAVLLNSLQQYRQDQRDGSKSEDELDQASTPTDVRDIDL
P1L: 0.28
R5K F11L: -0.214
N9P: 0.0602
L7P: -0.0854
I3D: -0.408
L7V: -0.592
R13N: 0.148
N9I: 0.516
N6C: -0.547
K4S: 0.163
I3Q: 0.185
E10Y: -0.322
F11M: 0.251
N9L: 0.0441
D12Q: 0.274
S2T: 0.255
R13V: 0.237
E10K: 0.0203
P1G: 0.0702
P1R: 0.358
E10N: 0.272
E10H: 0.0491
F11Q: 0.0988
N6K: 0.377
K4G: -0.333

Block 2
Target: MAFF, bZIP domain (human)
Technique: DHFR protein complementation
Matrix: yeast
Setting: single substitutions, most at no-binding floor
Reference: wild-type JUN-FOS pair
Direction: higher = stronger binding
Endpoint: binding fitness
Parent: JUN, bZIP domain (human); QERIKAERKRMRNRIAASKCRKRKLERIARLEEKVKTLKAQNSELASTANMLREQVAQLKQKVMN; partner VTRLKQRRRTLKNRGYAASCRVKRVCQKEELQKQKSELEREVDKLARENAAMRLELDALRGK
T48D: -1.45 natural log
S47A: -1.4 natural log
E54Q: -1.59 natural log
E44C: -1.39 natural log
L52R: -1.46 natural log
S43W: -1.52 natural log
A49R: -1.42 natural log
K39H: -1.53 natural log

Block 3
Target: ABI1, truncated, D143A, DHFR fusion (Arabidopsis thaliana)
Technique: DHFR PCA, deep sequencing
Matrix: yeast
Setting: methotrexate growth selection, single substitutions
Together with: (+)-ABA 2500 µM
Reference: wild-type fitted maximum
Direction: higher = stronger binding
Endpoint: relative binding score
Parent: PYL1, truncated, DHFR fusion (Arabidopsis thaliana); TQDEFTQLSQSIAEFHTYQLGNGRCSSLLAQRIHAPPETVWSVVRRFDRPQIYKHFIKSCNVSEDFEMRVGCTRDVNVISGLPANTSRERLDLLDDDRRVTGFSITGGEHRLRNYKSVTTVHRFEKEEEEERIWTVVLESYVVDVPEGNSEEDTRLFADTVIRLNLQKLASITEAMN
T86C: 93.5%
R49V: 90.6%
H55D: 94.3%
F157W: 58.8%
T106A: 92.2%
I12A: 82.4%
M68S: 87.6%
E128D: 95.2%
Y115C: 26.4%
F124Q: 104%
F66D: 97.9%
T17Y: 82.6%

Block 4
Target: Hepatocyte nuclear factor 3-alpha (Foxa1, Mus musculus, UniProt P35582, residues 1-468, full length assumed)
Technique: EMSA with sequencing
Form: double-stranded DNA, one strand shown
Matrix: in vitro
Concentration: 10 and 20 nM
Setting: whole designed probe, mean of two concentrations, ends assumed
Reference: negative control set to 0
Direction: higher = stronger binding
Endpoint: normalised bound fraction
Constant ends, left off below: GTGAGCGGTGCCCATTGATGGGGAAC … TTTCACTGGGATCGTGGGGAC
Residues (chain): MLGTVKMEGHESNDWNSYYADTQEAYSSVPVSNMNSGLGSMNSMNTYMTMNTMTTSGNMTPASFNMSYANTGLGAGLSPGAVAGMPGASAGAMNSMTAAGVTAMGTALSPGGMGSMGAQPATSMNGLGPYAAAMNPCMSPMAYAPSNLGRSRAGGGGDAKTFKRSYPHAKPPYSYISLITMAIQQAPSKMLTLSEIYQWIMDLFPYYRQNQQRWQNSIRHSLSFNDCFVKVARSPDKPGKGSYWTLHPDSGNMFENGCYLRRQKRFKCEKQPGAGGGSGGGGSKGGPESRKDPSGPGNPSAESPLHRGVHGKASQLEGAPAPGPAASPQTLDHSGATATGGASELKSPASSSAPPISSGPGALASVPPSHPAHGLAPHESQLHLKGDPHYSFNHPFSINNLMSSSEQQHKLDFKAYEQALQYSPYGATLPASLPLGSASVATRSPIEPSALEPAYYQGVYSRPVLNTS
ATTTGATACACGAAGAAAATCCTGGATTTGCCTCTAAGAGTCTCCCACATTATAACAATAATATCAACAATGATACCAGTCTTGCCTTTCCAGTGTAATCTTGAACAGACTCTTAAATATTAACTAAGTAGAACACAAGCTAGCTTTTTAATATTTTTATTTATTTAAAAAATGAAAAAGGAAATTATATAGA: 0.362 ratio
CCTGGCTGTGTGCTAATGGACAGGAGAAGAACTTGGATTTTGATAGCTTCTATATTACTTATAATTGTGTACAAAAAATTACATTTATTGCCCTAGATTACTTTTATGTTTATGAGCTTACTTGTTCAATGTCCCTCAACTGAAAGTGCATCTCAAAATGAGATTTATGAATTTGTACATTTGAGTTCTGTGT: 0.0232 ratio
CTCATTCCTTGCTTCCGCCAATAATCTGACTAGTAAAGAAGTCACTGCATGCCACAAATTGTCAGTGCTGACTTCCTCAACAAGGAAGTTATTTATTTACTTATTTAAGAGTGACTCAGTATATATGCAAATTCCATCTTGAGAATACCAACTCCTGATGCCAACTGATTGTCAGTCATGGCTACAACAGGAG: 0.441 ratio
ATTGAAGAACAAACAGCTATTGCCCAGCCCAGAAAGAGCCACCTCTTGGTAACTCCTGTGTGTGACATAAACTCATACCAGCAGTATCACAGAGCAAACAGCATAAACTCTGAATGCCACTCACTATTTGCTTTGCCAATAATAGTTCCAGGATGTACTGTTCTTCCAATGGGCTTAACAAACATTTCGATGC: 0.382 ratio
CGCGCCCGGACAGGACATGGGGGTTTCTAAACAAGGCTCTTCAGTATCAGCTCATTGTGAGTCACAGATCAGATCTGCCCAGTTCTCTTTTGCAGATGACATTGTTGTTTCCTCTGCAGGATTCAGCAGTACTGAAAGGGTTATTCAGTCCCAACATGGGATCTTTACACAAGAAGGGGAGCTTGTGAAATGC: -0.0115 ratio
CCCTCTTCTAACTCAGAAGGGTTGAAGCAGATAATGAAACCAGATACCTATGGGAATTAGTCAGCATTTCTTTATGTGAGTAGTTGTACTTGAGTAATTTTGCAATCCTGTTTACCAATCTATTCTGTTTTACTCAGTTATTTGAACTCTTTTTTCTCTTTAAAAACAGCAAAAGGAATGAAGGAAGGAAAGC: 0.00934 ratio
GAGCTGCTTGCAATTGAGTTGTATGTATGCTTCCACTTAATACGTCCTGCCGAGCCTGTAAGCCAACAGGACACTTCCGGCATCTGCCCTCTGTGTTTACCTACTCTCTTTTTATGTCTTATTCCCAGAATGACTGGGGACCAAAGGAATCCTTTGCAGGAGTTTTCTCCAGACAGACAGTTCCACATGCTAG: 0.238 ratio
ATCTTCCCCCTCTTCCTTGCCCCACCAGCTCACCTTCCCGGGTTATTTGCAGATAGGAAAATAAATAAAGCCGGCATTCGTTAACCCTCTTCTGGCGCAAACTGCTGTTTGCTCTGGATGAATCATGGTCCTTTGGCGACGCCAGGCTCCGGGAGAGCAGTAACCGGACTCAGGGCCATGATCCGGGGTGGCC: 0.329 ratio

Block 5
Target: RNA binding protein fox-1 homolog 2, RRM domain, GST-SBP tag (RBFOX2, Homo sapiens, UniProt O43251-10, residues 100-194)
Technique: RNA Bind-n-Seq
Form: RNA
Matrix: in vitro
Concentration: 365 nM
Setting: natural RNA segment, single round, ends assumed
Reference: no-protein control
Direction: higher = stronger binding
Endpoint: RBNS enrichment (R)
Constant ends, left off below: GGGAGUUCUACAGUCCGACGAUC … UGGAAUUCUCGGGUGCCAA
Target sequence (chain): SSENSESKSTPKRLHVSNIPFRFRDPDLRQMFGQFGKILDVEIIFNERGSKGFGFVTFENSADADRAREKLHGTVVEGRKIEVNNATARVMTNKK
AGAGAUGUUUUAUAGUUACAUGAGCAAAAGCUGUUGCCCCAAAGUGAUGGCCCUGGAGGCGGGGCUGAGGAACAGGGAAAUGCCGCUGUGAAGUCUUAAAGCACUUCUGC: 0.49
GAGGACUUUCUUAAAGCUACUGGGCUGGAGGUCCUUUCCCACUCCUUUGUCCUUUGCUUGGCCUAAGAUGCCAAUGCCCCGCCAUGUUUUCUCCAGAGAGUCCUUGGGGU: 0.746
UAAUCCCAAAUGUCUGAAUGUUUUGCAGUGUGUAGGGGUUUGAGCCCCUUGUUCAUUCUCCUUCCUUUUUCCUCCCGCUUCCCUCUCCAUGAAGUGAUUCUGUUGACAAU: 0.483
ACAUGGAGGUGGAGCCUGCAGCUGGAGUGAGGCGCACACUUGACUCUACUUGCAGGUGGUUUGCUGAGCAGAGAGCUGAGGGACCCUCUUGACUGGGUAGGGGUCUUGUC: 0.431
CAUUACUCAAGAUUUACACAGGCAAGUGACUUCAUUUGGCACUGCUAAUAAUGGCAGGUGAACAUUCCUCUCAGGUGUGAGAUAUUUCCUAUGAAACAGUCCACUGGCAG: 0.307
CCUAUCACUGUGAAUUGUGGCCUGGUCGCAGUUUGUAGUUUCAUUAAAUGGCCCUUUCACUCCCCUGCCUGGGCCUCUGCUGUCUUGCCUGGCUUCCUUCUUUUCUGAGA: 0.501
ACUAAGUAUUUUUUUGGUUCUUGUUUUUCUUUCAAAUAGCCAGGUUUUUUUCUUUUGGUAUUUGCAUAAAAUGAAAAUAUCACCGAAUAUUAAAUCACUGUGGAUCCAUU: 0.508
CCAGUGUCAUUCAGUAUUUUGUUGAGAAGACAUUUUUAUCCUAAUGAUUUGAAAACUAAGUUCAUGUUAUAGAGUGGUUUACUGUACUAUACUUUCUCUUUUUUAUAUGA: 0.709
CCCCUACGUGUGGGACUGGUCAGCGGUGGCGAGGAGAGGCGGGCGGAUUUGGGGAGGGCCCUGAGGACCUGGCCCCGGGCAAGGGACUCUCCAGGCUCCUCCUCCCCCUG: 0.383
GCUCCCAUUCCAAACUGUUAGUCCCCAACCUUGUGGUCACAUCAGAGGUCAACAGCAGAACAGAGGCAGGUCAGGGUUGUCCGCUCUGAUUAGCAGAACGACAGCCCCUU: 0.306
AUCUCAGCUCCCUGCAACUUCUGCCUCCCAGGUUCAAGCGAUUCUCCUGCCUUAGCCUCCUGAGUAGCUGGGUCAGCCACCAUGGCUGACUCAUUUUUUGUAUUUUUAGU: 0.973
UAUCCUGACUGACUCAACCCAGCAGAGCAUAAAUUGACUUGAGAGCCUUACCUUUGAUGUCUGAAAUGAAACCCCCUUCUCCAAAGGCAAAAUUCGGAGACUUUGAUCUU: 0.43
